# Results pooled from the literature.
# Lines come from different studies, so protocols differ. Numbers after ± are the reported error.
# ADRB2: Beta-2 adrenergic receptor (ADRB2, Homo sapiens, UniProt P07550)
# ppa: Inorganic pyrophosphatase (ppa, Escherichia coli, UniProt P0A7A9)
# SLC7A5: Large neutral amino acids transporter small subunit 1 (SLC7A5, Homo sapiens, UniProt Q01650)
# MAOB: Amine oxidase [flavin-containing] B (MAOB, Homo sapiens, UniProt P27338)
# Gria1: Glutamate receptor 1 (Gria1, Rattus norvegicus, UniProt P19490)
# NTSR1: Neurotensin receptor type 1 (NTSR1, Homo sapiens, UniProt P30989)
# NNMT: Nicotinamide N-methyltransferase (NNMT, Homo sapiens, UniProt P40261)
# DNA dC->dU-editing enzyme APOBEC-3B C-terminal domain: DNA dC->dU-editing enzyme APOBEC-3B, C-terminal domain (Homo sapiens, UniProt Q9UH17)
SMILES,target,test,system,conditions,IC50 [µM]
c1ccc(Nc2nc(NC3CCCCC3)c3ccccc3n2)cc1,ADRB2,"β-arrestin recruitment, antagonist",,,3
CC(C)(C)OC(=O)C[N+](C)(C)CCCN1c2ccccc2CCc2ccc(Cl)cc21,ppa,"inhibitor, counter-screen, coupling enzyme alone",,,38.9
O=C(CCNC(=O)CNC(=O)CC(c1ccccc1)(c1ccccc1)c1ccccc1)NC[C@@H]1CCCN(C(=O)c2ccc(F)cc2)C1,"CHRM3 (Homo sapiens, UniProt P20309)","ligand displacement, radioligand",,cell membranes,> 30
CN(C)c1nc(NCc2c(F)cccc2C(F)(F)F)c(/N=N/c2ccc(Cl)cc2)c(N(C)C)n1,"Chitinase (OfChi-h, Ostrinia furnacalis, UniProt Q4AE59)","enzyme activity, inhibitor, fluorescence",,,0.27
Cc1ccc2c(c1Br)C(O)(CC(=O)c1ccc3c(c1)OCO3)C(=O)N2 (centres unmarked),ppa,"inhibitor, counter-screen, coupling enzyme alone",,,> 30
c1ccc2c(NC3CCCCC3)nc(NC3CCCCC3)nc2c1,ADRB2,"cAMP production, antagonist, GloSensor",,added: isoproterenol 1 µM,> 50
Nc1cc(COc2ccc3[nH]cc(CC(N)C(=O)O)c3c2)c2oc(-c3ccccc3)nc2c1 (centres unmarked),SLC7A5,"transporter uptake, inhibitor, radiometric",,,17.6
O=P(O)(O)C(Nc1ccc(Cc2ccccc2)cc1)P(=O)(O)O,"polyphosphate kinase 2 (Cytophaga hutchinsonii, UniProt A0A6N4SMB5)","enzyme activity, inhibitor, HPLC",,"30 min, 37 °C, added: 0.04 mM ADP and 0.3 mM polyP",60.2 ± 0.065
Cc1ccc2c(c1C)NC(=O)C2(O)CC(=O)c1ccc2c(c1)OCO2 (centres unmarked),ppa,"enzyme activity, inhibitor",,,> 100
COc1cc(C(=O)/C=C/c2ccc(C(C)C)cc2)cc(OC)c1OC,MAOB,"enzyme activity, inhibitor",,,1.57
O=C(O)Cc1cc2c(cc1C(=O)c1ccccc1Br)OCO2,Gria1,"glutamate-evoked current, inhibitor, whole-cell patch clamp","HEK293T, homomeric receptor",,4.68
COc1ccccc1C1CCN(c2nc(C3CC3)nc3ccc(N(C)CCO)cc23)CC1,NTSR1,"G protein activation, antagonist, BRET",,,7.04
Cn1c(/C=C/c2cn(C)c3ccccc23)nc2ccccc2c1=O,ppa,"inhibitor, counter-screen, coupling enzyme alone",,,73.9
O=c1cc(-c2ccc(O)cc2)oc2c([C@@H]3OC[C@H](O)[C@H](O)[C@H]3O)c(O)c([C@@H]3O[C@H](CO)[C@@H](O)[C@H](O)[C@H]3O)c(O)c12,"CAMK2D (Homo sapiens, UniProt Q13557)","binding, LanthaScreen Eu binding",,19 h,0.27
COc1ccc(C(=O)CC2(O)C(=O)Nc3cc(Cl)cc(Cl)c32)c(OC)c1 (centres unmarked),ppa,"enzyme activity, inhibitor",,,> 100
COc1cc2c(cc1NS(=O)(=O)c1ccc(Br)cc1C)n(C)c(=O)n2C,"Bromodomain-containing protein 1, bromodomain (BRD1, Homo sapiens, UniProt O95696)",inhibitor,,,0.892
Cc1nn(-c2cccc(N)c2)c(=O)c2cnc(Nc3ccc(N4CCNCC4)cc3)nc12,"RAF1 (Homo sapiens, UniProt P04049, Y340D/Y341D)","kinase activity, inhibitor, SelectScreen kinase profiling",,,2.71
COc1cc2nc(C3CC3)nc(N3CCC(c4ccccc4OC)CC3)c2cc1OC,NTSR1,"G protein activation, antagonist",,,5.58
O=C(O)c1cc(-c2ccc(CN3CCCC(CO)C3)o2)ccc1Cl (centres unmarked),"DNA dC->dU-editing enzyme APOBEC-3B (Homo sapiens, UniProt Q9UH17)","enzyme activity, inhibitor, HPLC",,,70.1
CNc1cc(Cl)c(C(N)=O)cn1,NNMT,"enzyme activity, inhibitor",,,1.58
O=C1CC(c2ccccc2)N1S(=O)(=O)c1ccc(-c2ccccc2)cc1 (centres unmarked),"glpG (Escherichia coli, UniProt P09391)","substrate cleavage, inhibitor",NR698,,7
CCN(CC)CC(=O)Nc1cccc(-n2cc(-c3ccc4ccc(-c5cn(-c6cccc(NC(=O)CN(CC)CC)c6)nn5)cc4c3)nn2)c1,"FGFR2 (Homo sapiens, UniProt P21802)","enzyme activity, inhibitor",,,> 10
CCC1(CO)CCCN(C(=O)c2ccc(CSC)o2)C1 (centres unmarked),DNA dC->dU-editing enzyme APOBEC-3B C-terminal domain,"deaminase activity, inhibitor, UDG-coupled deamination",,,563 ± 20
CCOc1ccc(-c2nnc3n2N=C(c2cc(OC)ccc2OC)CS3)cc1,ppa,"enzyme activity, inhibitor",,,449
CNCc1ccc2c(c1)N(C(=O)OCC(F)(F)F)[C@H](CNC(=N)N)[C@H]2NC(=O)C(=O)Nc1ccc(Cl)c(F)c1,"env (Human immunodeficiency virus 1, UniProt O40222)",HIV-1 infection,Cf2Th-CD4/CCR5 cells,48 h,0.14
N#CSc1sc(N)nc1-c1ccccc1,ppa,"inhibitor, counter-screen, coupling enzyme alone",,,17.5
CC[C@@H]1CN(C(=O)NCC(F)(F)F)C[C@@H]1Nc1c(C(F)(F)F)cnc2[nH]ccc12,"JAK1 (Homo sapiens, UniProt P23458)","enzyme activity, inhibitor, ADP detection",,,0.00503
COc1cccc(NC(=O)N2CCOc3ccccc32)c1,ppa,"inhibitor, counter-screen, coupling enzyme alone",,,> 30
Cc1ccc2c(c1C#Cc1ccc(O)cc1)C(c1ccc(O)cc1)(c1ccc(O)cc1)c1cc(O)ccc1-2,"PDE4D (Homo sapiens, UniProt Q08499)","enzyme activity, inhibitor",,,0.144
N[C@@H](Cc1c[nH]c2ccc(OCc3ccc(-c4ccsc4)cc3)cc12)C(=O)O,SLC7A5,"transporter uptake, inhibitor, radiometric",,,18.6
N=C(N)SCc1ccccc1CSC(=N)N,"Nos2 (Mus musculus, UniProt P29477)","enzyme activity, inhibitor",,,> 30
COc1cc(CF)c(C(N)=O)cn1,NNMT,"enzyme activity, inhibitor",,,1.58
Cc1nnc(Nc2ccc(O)cc2)nc1O,DNA dC->dU-editing enzyme APOBEC-3B C-terminal domain,"deaminase activity, inhibitor, UDG-coupled deamination",,,114 ± 6
CNc1cc(F)c(C(N)=O)cn1,NNMT,"enzyme activity in cells, inhibitor",,,15.8
Cc1cc(O)c2c(c1)C(=O)c1cc(O)c(S(=O)(=O)O)c(O)c1C2=O,MAOB,"enzyme activity, inhibitor",,,> 100
O=C1Nc2ccccc2C12NC(c1ccc(Cl)c(Cl)c1)C1(C(=O)Nc3ccccc31)N2Cc1ccc(Cl)c(Cl)c1 (centres unmarked),"PIK3CD (Homo sapiens, UniProt O00329)","enzyme activity, inhibitor, ADP detection",,,0.216
Fc1cccc(Nc2nc(NC3CCCCC3)c3ccccc3n2)c1,ADRB2,"β-arrestin recruitment, antagonist",,,0.4
COC(=O)Cc1cc2c(cc1C(=O)c1ccccc1)OCO2,Gria1,"ion current, patch clamp",,,6.17

# For quick reference, copied from above:
SMILES,target,test,system,conditions,IC50 [µM]
COc1ccccc1C1CCN(c2nc(C3CC3)nc3ccc(N(C)CCO)cc23)CC1,NTSR1,"G protein activation, antagonist, BRET",,,7.04
Cn1c(/C=C/c2cn(C)c3ccccc23)nc2ccccc2c1=O,ppa,"inhibitor, counter-screen, coupling enzyme alone",,,73.9
O=c1cc(-c2ccc(O)cc2)oc2c([C@@H]3OC[C@H](O)[C@H](O)[C@H]3O)c(O)c([C@@H]3O[C@H](CO)[C@@H](O)[C@H](O)[C@H]3O)c(O)c12,"CAMK2D (Homo sapiens, UniProt Q13557)","binding, LanthaScreen Eu binding",,19 h,0.27
COc1ccc(C(=O)CC2(O)C(=O)Nc3cc(Cl)cc(Cl)c32)c(OC)c1 (centres unmarked),ppa,"enzyme activity, inhibitor",,,> 100
COc1cc2c(cc1NS(=O)(=O)c1ccc(Br)cc1C)n(C)c(=O)n2C,"Bromodomain-containing protein 1, bromodomain (BRD1, Homo sapiens, UniProt O95696)",inhibitor,,,0.892
